Measured values from different studies.
Every numbered part comes from another study and shows a few of its results, in no order.

Sample 1
Target: RNA binding protein fox-1 homolog 2, RRM domain, GST-SBP tag (RBFOX2, Homo sapiens, UniProt O43251-10, residues 100-194)
Technique: RNA Bind-n-Seq
Form: RNA
Matrix: in vitro
Tested at: 365 nM
Setting: natural RNA segment, single round, ends assumed
Reference: no-protein control
Reading: higher = stronger binding
Measurement: RBNS enrichment (R)
All sequences stand within: GGGAGUUCUACAGUCCGACGAUC … UGGAAUUCUCGGGUGCCAA
Residues (chain): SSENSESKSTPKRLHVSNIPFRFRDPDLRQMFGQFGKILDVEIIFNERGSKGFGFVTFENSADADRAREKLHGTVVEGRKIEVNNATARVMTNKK
CAGAGCUCUUUAAAGCUCUGCAGAAGAUUUACAUGUGUUUAUAGAGCUAAGAGAAAUCAGGGCAUGGAAAUUGAGUGUGUAAUAAAAAUUAAACUCUUCAUGUUAUAUAA: 1.15
UCAAUGACAUCUCUCAGAGCAUUUUUGUUUUCUCCUCUGAAGGUCCAUCCAGUUGCAUUGGGAAGGGUUGAGGGGCCUGAUUCUGGGGCUGGCUAAUGCCAGCUCUCGGG: 0.711
AAAUAGGGAGACUGACUGAGUAGCUCAUUCUUGUGACUUACAGUGCCAACAUUUAAAAAAGUAUGAAAAUGAUUUAUUUUUAUAUGAUGUAUACCCAUAAAGAAUGCUCA: 0.294
CGCCCUGACACCUGGCUGGCCAGCCGCGUGCCCUGCCCCACCUGCCGCGCACGCUUCUGCAUCCUGGAUGUGUGCACCGUGCGCUGAGUGGGCUGGGGCCUUGAGGUGAC: 0.314
GGUAGUGUCAGGACUAUCCUGUGCUCUAUGACAUUCUAUCUCUAAAAAUGAAGCAACACUUUUUCUGUUUAAUGAGUAUUAUGAGUUGGACAGCAAAUUUUUGUCUUAAU: 0.327
GUUUUUUGAAACACCUCUCACUGCAUCUGAUAUCAGGAAACAAAGAUGAAGGACUUGGCGAACAGAAAGCCCUUCGAGAUCUUGUGUACCCCACCUUCCCACACUGUGAG: 2.14

Sample 2
Target: Histone acetyltransferase KAT6A, both winged helices, GST fusion (KAT6A, Homo sapiens, UniProt Q92794, residues 1-181)
Technique: protein binding microarray
Form: double-stranded DNA, one strand shown
Matrix: in vitro
Tested at: not given
Setting: 8-mer, flanks averaged, mean of 2 arrays, mostly near background
Reference: not given
Reading: higher = stronger binding
Measurement: E-score
Target sequence (chain): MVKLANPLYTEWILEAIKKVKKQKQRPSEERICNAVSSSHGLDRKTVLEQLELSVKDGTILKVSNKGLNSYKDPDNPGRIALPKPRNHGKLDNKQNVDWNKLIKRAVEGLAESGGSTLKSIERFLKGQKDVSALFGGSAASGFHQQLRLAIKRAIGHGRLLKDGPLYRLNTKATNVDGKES
ATGGTAGG: -0.0831
CAGTGTTC: -0.0164
CGGGAGAA: 0.0203
AGGTCGAA: -0.133
GACGCACA: 0.183
ATCGCTCC: 0.187

Sample 3
Target: RING finger protein unkempt homolog, zinc fingers 1-6, GST-SBP tag (UNK, Homo sapiens, UniProt Q9C0B0, residues 30-357)
Sequence of UniProt Q9C0B0 (30-357, looked up): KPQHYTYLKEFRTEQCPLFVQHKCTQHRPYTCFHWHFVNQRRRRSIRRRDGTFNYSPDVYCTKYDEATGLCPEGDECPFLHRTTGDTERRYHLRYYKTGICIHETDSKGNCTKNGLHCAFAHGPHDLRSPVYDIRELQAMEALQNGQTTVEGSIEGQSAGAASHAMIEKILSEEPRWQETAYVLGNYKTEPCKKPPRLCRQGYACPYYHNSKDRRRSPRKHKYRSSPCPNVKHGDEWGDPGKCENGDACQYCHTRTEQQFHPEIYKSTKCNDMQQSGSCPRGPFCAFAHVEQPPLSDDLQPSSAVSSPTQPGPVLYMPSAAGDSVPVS
Technique: RNA Bind-n-Seq
Form: RNA
Matrix: in vitro
Tested at: not given
Setting: RNA with constant flanks, human and mouse sites, ends assumed
Reference: input RNA pool
Reading: higher = stronger binding
Measurement: bound/input enrichment
All sequences stand within: GGGAGUUCUACAGUCCGACGAUC … CAACAGAGGAUUGAGCAUCA
UUAACUCCUUUACACCAUUAGUUAUCUGUGAGACCAUCUAUUCCACACUCUUCAUUUUUUAAAAAGAGACAAUAAUUAUUUUUAACUCACUGAAGUUUAAAACUACCUAGCAUUUCUGAU: 47.5 ratio
CGCGGCUCGAACUUCACUGCCAUUUGUGUGCUGAAGGAGGCGUGUCUGCAGCAUUACUACGUGAAUGCCAGCUACAUCGUGUGGAAGACCAACCAUGCUGCUGUUCCCAGGGAGCAGGUC: 0.128 ratio
GGUGUAUUUAUGCUGUCUGAUUACAGAAUCACUGGAAAUACUGUGCUGUGUUACUGCUGUGGUCUGCGUAGCUUCCGAGAGCUGACCUACCAGUAUCGUCAGAACAUUCCUGCUUCUGAG: 0.135 ratio
AAAAUUCCUCCUAUGGUAACCACAGAUCAAAAACAAGAAGAGAGUAAACUAGAGAAAGACAAAGCUUCAGCUCUUCAAGAAAAAAAGCCACUCCCUGAAGAAAAAAAACUAAUCCCUGAA: 0.266 ratio
UCUGCUACACGGGAGCCACCAUACAGAGUACCUAGGGAUGAUUGGGAAGAAAAAAGGCACUUUAGAAGAGAUAGUUUUGAUGAUCGUGGUCCUAGUCUCAACCCAGUGCUUGAUUAUGAC: 1.61 ratio

Other studies, line by line
PhoQ, residues 284 288 289 292 302 303 SNSSNI
fold induction (PhoP, residues 12 14 15 18 19 LYFRQ (Escherichia coli, UniProt P23836); Sort-seq, item: YFP reporter; E. coli; PhoQ-PhoP variant library, added: 10 µM Mg2+; reference: high Mg2+ state, higher = stronger signaling): 0.639

Some of these lines once more (sample 2):
ATCGCTCC: 0.187
